# Assay results from different studies.
# Each numbered part is a random draw from the data of one study; scales do not carry over between parts.

# Study 1 — technique: RNA Bind-n-Seq; form: RNA; medium: in vitro; concentration: not given; setting: RNA with constant flanks, ends assumed; reference: input RNA pool; reading: higher = stronger binding
# Target: RING finger protein unkempt homolog, zinc fingers 1-6, GST-SBP tag (UNK, Homo sapiens, UniProt Q9C0B0, residues 30-357)
# Sequence of UniProt Q9C0B0 (30-357, looked up): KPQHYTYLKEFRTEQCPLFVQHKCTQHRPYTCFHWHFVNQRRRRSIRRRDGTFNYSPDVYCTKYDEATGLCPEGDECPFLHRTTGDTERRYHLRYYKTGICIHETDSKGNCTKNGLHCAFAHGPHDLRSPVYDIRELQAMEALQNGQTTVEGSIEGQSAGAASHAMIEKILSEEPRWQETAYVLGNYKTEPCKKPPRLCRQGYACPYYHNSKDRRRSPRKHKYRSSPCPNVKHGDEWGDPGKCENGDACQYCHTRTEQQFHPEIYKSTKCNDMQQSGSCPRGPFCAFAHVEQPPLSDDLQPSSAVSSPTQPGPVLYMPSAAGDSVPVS
# Shared flanks, not repeated: GGGAGUUCUACAGUCCGACGAUC … CAACAGAGGAUUGAGCAUCA
Sequence,bound/input enrichment
ACUGGAGUUGUGCACAGCACCGCAGCUAGUGGGCCUGGCUGGGGGUGCAGAAGGGCAGGGCCGUUCUUUCCAUUUCCCCUUGCAGCUACACUUACUUUCUCCCUGACUACCAAAUGGAGU,0.159 ratio
UGCGUUUUGUGUAGAGAAUAAGGAACGUGGAUCUUUUUAUUUUGCAAUCCUGGGCCAGCCCGAUACCGGGAGCUAAUUGACCUUUUAACCUUUUCAGUGGCCACCUUUUGGUUAUCAAUG,0.197 ratio
CCCAACUCCUCUUCAGGACUCACUCCUCUCAGCACCACCGCGCCGAGCAUGUUCUCUGCUGACUUUCCCGACCCACAGGACCUACCGCUGCCAUGGGACUAACGUCACAGAUUUCUUUUC,0.273 ratio
UUUCUCCGUCGCCACAAGCGGCCCGGUGGCAUGUGCUAAGGCGGCUUCCGCUGUUUCAGUCCCGAUUUUUUUCUUAACAGUCCCAUUCCAAUUCUUUUGCAAGCAAAGAAACUGAGGCUG,0.16 ratio
GAUUUUAAUUGGCAGGGGAUAAUGGUAGCUUUCAAAUCAUUGGAAGGGGAAAAGGAUGUCUCCGGAUUAUUUUCUUUCUUGUAGUAGUUGAGACAGAGCUCUUAUUUACUGUAAUGCUAA,0.368 ratio
GAGAUUGACUGCACCAUGCUCACCCCUGAGCCAGUUUUAAAGACCUCUGGCCACGCCGACAAAUUUGCUGACUUCAUGGUGAAGGACGUGAAGAACGGAGAGUGCUUCCGAGCAGACCAC,0.109 ratio
AUGAGGGCUCCUAAACACUUUCUUCCUGAGAUGUUAAGCAAAGUAAUCAUCCUGUCACCCGACCGAAGCGAUGAAGAUAAAGAAAAAGCAAGUUCUUUGAUCAGUUUACUCAAACAGGAA,0.11 ratio

# Study 2 — technique: universal PBM; form: double-stranded DNA, one strand shown; medium: in vitro; concentration: not given; reading: higher = stronger binding
# Target: Sal-like protein 4, full length isoform B (SALL4, Homo sapiens, UniProt Q9UJQ4-2, residues 1-616)
# Setting: 8-mer, flanks averaged, mean of replicates
Sequence,E-score
ACCACGGC,-0.178
ACCGAGTG,-0.237
CACCTTGA,-0.0895
GTATTCGA,-0.0702
CGTTTCCC,-0.246
CCTCGGGC,-0.291
CGGTCCTC,-0.326
GGCATACC,-0.144
GAGTGCCA,-0.112
AGGTCAAC,-0.0476
ACTACGAT,0.09

# Study 3 — technique: Sort-seq; refers to: YFP reporter; medium: E. coli; setting: PhoQ-PhoP variant library; with: 10 µM Mg2+; reference: high Mg2+ state; reading: higher = stronger signaling
# Molecule: PhoQ, residues 284 288 289 292 302 303 ASVMEA
target,fold induction
"PhoP, residues 12 14 15 18 19 NFFVT (Escherichia coli, UniProt P23836)",12.2
"PhoP, residues 12 14 15 18 19 TPWTL (Escherichia coli, UniProt P23836)",2.54
"PhoP, residues 12 14 15 18 19 LHHYF (Escherichia coli, UniProt P23836)",6.7
"PhoP, residues 12 14 15 18 19 VGHWL (Escherichia coli, UniProt P23836)",1.95

# Study 4 — technique: competition protein-binding microarray; form: double-stranded DNA, one strand shown; medium: in vitro; concentration: 2 µM; with: Cbf1 competitor, 0.05 µM; reading: higher = stronger binding; shared flanks, not repeated: … GTCTTGATTCGCTTGACGCTGCTG
# Target: Phosphate system positive regulatory protein PHO4, full length, GST-tagged (PHO4, Saccharomyces cerevisiae, UniProt P07270, residues 1-312)
# Setting: whole 60-bp probe, lowest competitor level
# Construct (chain): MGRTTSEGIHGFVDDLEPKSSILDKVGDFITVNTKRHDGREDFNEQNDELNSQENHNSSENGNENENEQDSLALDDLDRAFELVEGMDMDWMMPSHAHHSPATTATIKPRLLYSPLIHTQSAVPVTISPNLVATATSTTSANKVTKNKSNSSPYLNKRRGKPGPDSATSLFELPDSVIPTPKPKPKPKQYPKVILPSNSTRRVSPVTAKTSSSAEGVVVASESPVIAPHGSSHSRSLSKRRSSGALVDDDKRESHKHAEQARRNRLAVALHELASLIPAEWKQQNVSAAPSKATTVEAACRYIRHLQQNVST
Sequence,fluorescence intensity [a.u.]
AATATAACTCAACAAAACGTGACGGAAAATCAAATG,12700
TTGTTGCCACAAATGAACGTGGAAGGAGTTTCTGGG,9400
CATACCCAACCTTGCGTCGTGGGTGAAGATATTTGT,8970
CGTCCTAGTGATTGTCACGTTACTTCCATGAGGAAG,7310
TGCGCAACAACTTGTCACTTAACTTTATGTCTAGAA,2720
CGTCCTAGTGATTGTGTAGTGGGTGCCATGAGGAAG,7470
TGCGCAACAACTTTTCACGTGGCATTATGTCTAGAA,14600
TGCGCAACAACTTGGACTGTGGGTGTATGTCTAGAA,5320
GTTCTGGGTATTTCGCATGTGGATGGGTTCAGTGTC,9240
CAGCGGATTCCCGAGCACATGGAGTCGCTGAACGGC,9150
CTAACATCGTCCGCGCAGGTGACGCCTCCCGCGCTG,5620
CATACCCAACCTTTTCACGTGGGTTAAGATATTTGT,14500
CTTTCCCGATCTTTTCACGTGAGTTTAGCACATTTG,10400
ATCTAGAATATCCTACACGTCATCAGCGATTATCCG,4950
ACTTGTGGCTACATACTCGGTCAAGCCGCTTTGCTG,3140
AATCCCTTATCCCGTCACGTGAATTAAACTTCGGGT,13200
CATACCCAACCTTGTTTAGTGGGTGAAGATATTTGT,3530
CTAACGAAGGTTTGATGCGTGGGTGACAAGCCAAGT,8660
CGGGGTTAAGTTTGAAGTGTGGGTGGCTTGCAGCAG,5330
AGAGTCATCGGCTTCACCGTGAGGTTTTTTCAAGTG,3920
CCTGCCCAGACCCTCCACGTGGGCACAGCAGCCAGG,17500
GTCTGAGTAAGTCCGCACGTCCAACGTCTTGAGTCG,6480
TGCGGGCGCGCTTTTCACGTTTTGATTAGCAACAGG,7710

# Study 5 — technique: protein binding microarray; form: double-stranded DNA, one strand shown; medium: in vitro; concentration: not given; reference: not given; reading: higher = stronger binding
# Target: Histone acetyltransferase KAT6A, both winged helices, GST fusion (KAT6A, Homo sapiens, UniProt Q92794, residues 1-181)
# Setting: 8-mer, flanks averaged, mean of 2 arrays, mostly near background
# Construct (chain): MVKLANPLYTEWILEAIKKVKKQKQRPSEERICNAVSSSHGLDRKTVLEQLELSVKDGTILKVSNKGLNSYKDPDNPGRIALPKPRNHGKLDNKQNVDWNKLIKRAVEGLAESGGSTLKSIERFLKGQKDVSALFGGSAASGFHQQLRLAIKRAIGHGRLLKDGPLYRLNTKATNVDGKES
Sequence,E-score
AGGGGAGA,-0.16
GTGGCAAC,-0.0334
CGCGAACG,0.291
CCGCGGGA,0.341
CCCCCCGG,0.157
AATGCATA,-0.0359
AATCGCGC,0.284
GGACGGAA,0.178
AGGTGATA,-0.162
ACGAAGAG,-0.0627
TAGATAAA,-0.14
ACCGGGGC,0.0524
TCCGCGCA,0.359
GGCATCCA,-0.133
CACCTGCC,-0.0966
AAATCCTG,-0.125
ACAAGGCT,-0.0261
AATTCATG,-0.0338
AACGTCAA,0.0322
ATTGGAGA,-0.0258
CTGACGTC,-0.0451
GCTGAGGA,0.0155

# Study 6 — technique: RNA Bind-n-Seq; form: RNA; medium: in vitro; concentration: 365 nM; reference: no-protein control; reading: higher = stronger binding
# Target: RNA binding protein fox-1 homolog 2, RRM domain, GST-SBP tag (RBFOX2, Homo sapiens, UniProt O43251-10, residues 100-194)
# Setting: natural RNA segment, single round, ends assumed
# Shared flanks, not repeated: GGGAGUUCUACAGUCCGACGAUC … UGGAAUUCUCGGGUGCCAA
# Residues (chain): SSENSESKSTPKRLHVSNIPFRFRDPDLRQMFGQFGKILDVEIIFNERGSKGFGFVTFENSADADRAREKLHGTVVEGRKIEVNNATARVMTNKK
Sequence,RBNS enrichment (R)
UAUGUGGAGGACAUGUUCCCAUGGAUCAUAUGUGAAGAUGUCAAUAAGCUUGCAUUAAGCCACCUGCUUUGUAAGUGGAUUGAUUAAUAAAUAACUUAUAUUUCUAUUGU,0.359
AUCUGAAACGGCAGCUUCUGAGGAAACCCUGACCAACGCCUCCCAGCGCAUCAGCAAGCUUGAGAGGAACGUGGAAGAGCUUAAGCGUAAAGCUGCCCAGAACUCUGGGG,0.331
UGGGAUUAAAGGCGUGCGCCACCACCACCCAGCUGUUACCACACUCUUAUUUGGAAGACUAGCAUGACCUUGCUGUUGAUGUGCCCAUGUAGCAGGGUAAAAGAAAAUUC,3.61
UGUCUGCAAACACUACCCUACCUAAAUCCAGCCUCUAAGGUCUCACUGGUGUGGAAUUAAACUCUUAUUGGCCAAAUGCCUGUUUUCAUGAGGUGACUUGUAAAGAUUUU,0.508
CUUUCAUUUUAAAGGUUAUUUGCCCUCAAUUAUAUAAUUUCAGUGUUAUAAAGUUUAGCUUAAACUCCUUUGCAAUAAUUUAUUUGACAGAACUCCAUUCUAAAACCAUG,0.481
UUCGUACAAAUGUGAAGUAUUAAUAUUAUCGCAGUAUUAUUGUUGUUAUUAUUAUUGUUAUUAUUAACAAUCUUGGGUGGGUAGUAGGAGAGCAAAAAGUAUGAAUGGGA,0.76
UGCUCAGUGCCCCACCAGGCGUGGGCCUGGUCUCAGCGGCGGCUGCAGCCGUAGCAGCAUCCAUCUCCAGCAAGUCUCCUGGCCUCUCCUCGUCUUCUUCAUCCUCAUCA,2.11
ACCAAGUGAUCUUGUUUACAGUAACCGUCAACAGUGCCAAUAAGGGGUGAGGACACUAACAGUGUAACUGGUGACCACGUGAACAGUUCCAUGAAUUAAAUGUUUCCUGU,0.539
UCCCAGUUCUCUGACUCUCGCUCUAGAGUUGAGAACAGGCAGGGCCUGGUGUGCUCUGGGAUGUGCAAGGUGGAGCAGGCCUGUCAGUCAGCCUGCUGCUGCAUCUGUUC,0.438
UGGGCUGGGCUGAAAGUGAAAUAUUUUCUCCCUGGAUUUUUACCAGCCAUCACCUUGGACCACCAAGCCUUGAAUGGUGUUGCCAGUUGGCUCCUCCUGGGGAGGACUUU,0.402
CUCCCUGAAAUGUGGCAUCAGCAUGAAAACAAGCAGCCUGUCUUUCCUCAUUAACUGGGAGUCCCACUUACCUACUGUCAGCUGAUCACAGCAGCAAUGGCUAAUUCAGU,2.54
UCUCUUUAAAAUUUCAAGUGUUAUCAUGAUUGUUUAUAUGAAUGUAGAACACCUCGGUAUUUCUUUUUAUAUAUAUAAACUAUUUAAUAAAAAUGAAAGAUUGAAUGUUA,2.11

# A few entries again (study 5):
Sequence,E-score
TCCGCGCA,0.359
AGGTGATA,-0.162
AATCGCGC,0.284
CCCCCCGG,0.157
TAGATAAA,-0.14
ACAAGGCT,-0.0261
GGACGGAA,0.178
AGGGGAGA,-0.16
ATTGGAGA,-0.0258
AATTCATG,-0.0338
CACCTGCC,-0.0966
